Measured values gathered from unrelated publications.
Parts stem from different laboratories: compare values within a part only. Values joined by “and” are separate records of one study, mostly repeats; a detail may differ.
Chain of UniProt Q9NSY1 (whole entry, looked up): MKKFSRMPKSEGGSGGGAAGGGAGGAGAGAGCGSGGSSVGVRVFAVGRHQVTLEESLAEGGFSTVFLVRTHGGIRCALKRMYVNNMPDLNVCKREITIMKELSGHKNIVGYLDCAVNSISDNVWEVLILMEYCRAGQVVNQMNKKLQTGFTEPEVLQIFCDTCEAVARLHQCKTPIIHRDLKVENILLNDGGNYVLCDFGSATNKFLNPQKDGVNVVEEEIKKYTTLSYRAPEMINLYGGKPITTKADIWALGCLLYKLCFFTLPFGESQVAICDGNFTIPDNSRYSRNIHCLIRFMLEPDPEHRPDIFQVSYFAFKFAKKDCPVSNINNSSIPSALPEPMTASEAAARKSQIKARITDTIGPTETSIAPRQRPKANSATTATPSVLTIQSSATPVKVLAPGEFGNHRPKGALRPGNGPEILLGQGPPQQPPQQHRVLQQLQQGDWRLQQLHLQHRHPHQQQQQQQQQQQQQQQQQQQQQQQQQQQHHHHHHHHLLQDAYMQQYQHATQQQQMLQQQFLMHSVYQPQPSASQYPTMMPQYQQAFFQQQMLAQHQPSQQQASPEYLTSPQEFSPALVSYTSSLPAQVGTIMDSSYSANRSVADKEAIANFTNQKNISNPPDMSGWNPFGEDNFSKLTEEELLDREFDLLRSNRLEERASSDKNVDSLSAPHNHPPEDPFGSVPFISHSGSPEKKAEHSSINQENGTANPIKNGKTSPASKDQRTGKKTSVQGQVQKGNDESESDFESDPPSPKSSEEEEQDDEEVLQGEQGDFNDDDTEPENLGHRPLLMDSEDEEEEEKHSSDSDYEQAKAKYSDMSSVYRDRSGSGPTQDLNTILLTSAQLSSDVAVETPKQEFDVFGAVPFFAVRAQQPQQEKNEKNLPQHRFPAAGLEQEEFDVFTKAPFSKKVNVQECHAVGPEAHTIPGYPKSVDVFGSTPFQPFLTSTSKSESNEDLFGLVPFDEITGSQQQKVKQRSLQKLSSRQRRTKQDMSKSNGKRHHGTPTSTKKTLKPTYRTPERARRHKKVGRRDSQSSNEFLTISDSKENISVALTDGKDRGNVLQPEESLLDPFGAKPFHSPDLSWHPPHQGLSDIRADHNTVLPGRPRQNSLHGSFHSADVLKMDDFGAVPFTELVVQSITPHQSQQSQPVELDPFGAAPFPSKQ
Chain of UniProt Q14004 (whole entry, looked up): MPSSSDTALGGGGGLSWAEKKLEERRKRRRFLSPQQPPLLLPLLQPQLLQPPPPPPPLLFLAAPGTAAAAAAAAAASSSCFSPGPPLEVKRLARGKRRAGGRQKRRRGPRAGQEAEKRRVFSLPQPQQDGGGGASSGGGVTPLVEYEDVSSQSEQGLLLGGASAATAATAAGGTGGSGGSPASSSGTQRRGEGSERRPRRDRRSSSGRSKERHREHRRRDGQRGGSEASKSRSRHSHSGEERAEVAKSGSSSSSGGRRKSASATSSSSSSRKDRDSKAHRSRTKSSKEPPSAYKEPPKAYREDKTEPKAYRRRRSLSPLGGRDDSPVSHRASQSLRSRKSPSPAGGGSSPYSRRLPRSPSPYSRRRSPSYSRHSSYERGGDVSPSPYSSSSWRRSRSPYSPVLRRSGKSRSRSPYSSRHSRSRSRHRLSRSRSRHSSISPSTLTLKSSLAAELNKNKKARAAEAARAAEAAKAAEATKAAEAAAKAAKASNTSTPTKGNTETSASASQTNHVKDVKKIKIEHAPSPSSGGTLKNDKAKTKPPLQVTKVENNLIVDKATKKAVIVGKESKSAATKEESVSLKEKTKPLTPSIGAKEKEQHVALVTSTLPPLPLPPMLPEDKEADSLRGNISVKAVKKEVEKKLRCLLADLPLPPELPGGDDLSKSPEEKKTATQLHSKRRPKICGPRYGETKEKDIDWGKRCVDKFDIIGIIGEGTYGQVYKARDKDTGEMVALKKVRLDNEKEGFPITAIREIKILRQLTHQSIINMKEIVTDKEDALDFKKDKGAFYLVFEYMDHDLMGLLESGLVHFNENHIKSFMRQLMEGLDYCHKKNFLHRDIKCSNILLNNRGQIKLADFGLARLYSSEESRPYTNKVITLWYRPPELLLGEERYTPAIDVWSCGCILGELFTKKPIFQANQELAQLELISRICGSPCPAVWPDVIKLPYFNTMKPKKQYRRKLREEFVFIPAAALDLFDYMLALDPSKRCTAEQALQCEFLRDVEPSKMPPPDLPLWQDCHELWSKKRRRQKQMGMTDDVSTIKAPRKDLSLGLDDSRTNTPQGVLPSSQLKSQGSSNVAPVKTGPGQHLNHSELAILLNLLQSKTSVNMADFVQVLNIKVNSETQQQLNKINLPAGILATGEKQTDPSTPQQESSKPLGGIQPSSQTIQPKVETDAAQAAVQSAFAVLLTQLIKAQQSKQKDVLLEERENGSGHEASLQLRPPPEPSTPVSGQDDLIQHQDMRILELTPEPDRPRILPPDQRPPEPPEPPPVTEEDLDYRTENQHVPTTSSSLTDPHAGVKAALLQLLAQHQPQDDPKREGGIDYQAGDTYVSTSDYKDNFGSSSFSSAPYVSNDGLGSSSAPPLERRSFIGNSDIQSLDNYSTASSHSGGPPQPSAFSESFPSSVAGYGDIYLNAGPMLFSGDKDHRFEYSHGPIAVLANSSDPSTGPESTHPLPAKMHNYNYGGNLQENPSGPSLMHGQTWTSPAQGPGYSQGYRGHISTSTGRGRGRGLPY
Chain of UniProt Q00537 (whole entry, looked up): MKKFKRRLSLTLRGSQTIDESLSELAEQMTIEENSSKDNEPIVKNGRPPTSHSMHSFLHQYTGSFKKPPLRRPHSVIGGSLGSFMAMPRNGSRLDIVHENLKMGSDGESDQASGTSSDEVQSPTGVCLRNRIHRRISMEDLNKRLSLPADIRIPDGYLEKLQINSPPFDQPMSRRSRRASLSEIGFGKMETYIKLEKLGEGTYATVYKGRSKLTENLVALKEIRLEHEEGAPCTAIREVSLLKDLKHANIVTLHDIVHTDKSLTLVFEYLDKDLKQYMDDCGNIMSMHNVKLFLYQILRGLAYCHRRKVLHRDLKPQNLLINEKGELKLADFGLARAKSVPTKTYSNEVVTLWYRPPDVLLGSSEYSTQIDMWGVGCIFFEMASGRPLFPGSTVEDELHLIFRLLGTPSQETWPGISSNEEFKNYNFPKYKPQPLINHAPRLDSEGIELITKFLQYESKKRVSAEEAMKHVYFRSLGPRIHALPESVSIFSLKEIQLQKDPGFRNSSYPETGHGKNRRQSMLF
Chain of UniProt Q13233 (whole entry, looked up): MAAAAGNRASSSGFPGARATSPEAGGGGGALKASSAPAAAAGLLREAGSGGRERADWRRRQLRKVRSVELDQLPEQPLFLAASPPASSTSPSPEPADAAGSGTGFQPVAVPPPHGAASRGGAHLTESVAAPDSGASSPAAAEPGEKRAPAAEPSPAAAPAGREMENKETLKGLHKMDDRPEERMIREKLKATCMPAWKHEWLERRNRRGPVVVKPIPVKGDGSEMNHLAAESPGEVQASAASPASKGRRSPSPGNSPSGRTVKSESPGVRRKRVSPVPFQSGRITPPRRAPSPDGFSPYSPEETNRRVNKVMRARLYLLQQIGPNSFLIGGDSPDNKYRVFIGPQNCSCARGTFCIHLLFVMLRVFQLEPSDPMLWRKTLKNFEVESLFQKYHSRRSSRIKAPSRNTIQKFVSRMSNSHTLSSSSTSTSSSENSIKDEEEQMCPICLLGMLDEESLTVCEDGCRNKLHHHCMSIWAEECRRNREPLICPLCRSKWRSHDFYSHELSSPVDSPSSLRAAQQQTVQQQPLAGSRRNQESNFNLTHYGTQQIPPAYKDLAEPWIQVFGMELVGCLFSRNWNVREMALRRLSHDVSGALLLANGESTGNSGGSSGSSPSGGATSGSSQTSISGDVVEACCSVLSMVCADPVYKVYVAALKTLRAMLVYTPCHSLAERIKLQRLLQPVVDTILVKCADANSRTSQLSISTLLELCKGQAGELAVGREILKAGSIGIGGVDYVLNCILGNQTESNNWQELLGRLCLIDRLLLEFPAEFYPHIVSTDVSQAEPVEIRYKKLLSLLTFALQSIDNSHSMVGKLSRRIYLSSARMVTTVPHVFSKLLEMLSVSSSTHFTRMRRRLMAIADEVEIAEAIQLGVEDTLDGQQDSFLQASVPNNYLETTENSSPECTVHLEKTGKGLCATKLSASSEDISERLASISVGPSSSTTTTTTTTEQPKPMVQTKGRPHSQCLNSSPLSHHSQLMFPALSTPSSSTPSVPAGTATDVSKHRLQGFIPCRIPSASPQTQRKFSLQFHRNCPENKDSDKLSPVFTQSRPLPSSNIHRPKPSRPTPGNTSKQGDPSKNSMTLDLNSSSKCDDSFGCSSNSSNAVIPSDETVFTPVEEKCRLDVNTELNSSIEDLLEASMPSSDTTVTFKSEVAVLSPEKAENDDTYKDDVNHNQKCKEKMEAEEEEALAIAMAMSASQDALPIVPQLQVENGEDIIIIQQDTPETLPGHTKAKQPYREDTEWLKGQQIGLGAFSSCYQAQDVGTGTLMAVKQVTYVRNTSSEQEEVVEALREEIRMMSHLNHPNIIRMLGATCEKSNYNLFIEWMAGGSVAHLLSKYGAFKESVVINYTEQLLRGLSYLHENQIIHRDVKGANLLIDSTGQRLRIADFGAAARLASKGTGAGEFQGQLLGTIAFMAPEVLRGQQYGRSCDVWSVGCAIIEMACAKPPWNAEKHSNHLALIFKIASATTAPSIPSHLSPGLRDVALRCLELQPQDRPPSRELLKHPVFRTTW

Set 1
Cell line: mouse MPNST tumor cells
Technique: high-content nuclear imaging
Refers to: cell number
Tested at: 10 µM
Time: 12 h
Notes: mean of 2 replicates
Baseline: plate mean
Direction: higher = more cells
SMILES | nuclei count
COc1cc(C(=O)N2CCC(N3CCN(C)CC3)CC2)ccc1Nc1ncc2c(n1)N(C)c1ccccc1C(=O)N2C | -3.26 z-score
Cc1nc(-c2ccc(OCC(C)C)c(C#N)c2)sc1C(=O)O | 2.36 z-score and 1.23 z-score
CCN(CC)CCOc1ccc(Nc2ncc3cc(-c4c(Cl)cccc4Cl)c(=O)n(C)c3n2)cc1 | -6.53 z-score
C/N=C(/NC#N)NCCSCc1csc(NC(=N)N)n1 | 1.57 z-score
O=C(O)CNC(=O)C(CS)Cc1ccccc1 (centres unmarked) | 0.616 z-score
CCn1c(=Cc2cccc[n+]2CC)sc(=C2Sc3ccccc3N2C)c1=O | -1.65 z-score
CC(C)n1c(/C=C/C(O)CC(O)CC(=O)O)c(-c2ccc(F)cc2)c2ccccc21 (centres unmarked) | -5.39 z-score

Set 2
SMILES: CN(C(=O)c1ccccc1)c1cc(N(C)c2ccc3c(c2)CCc2ccc(C(=O)NCCN4CCOCC4)cc2C3=O)ccc1F
Read-out: cell-free assay
Technique: competition with immobilised ligand
Tested at: 1 µM
target | remaining binding [%]
Cyclin-dependent kinase 17 (CDK17, Homo sapiens, UniProt Q00537) | 86
Dual specificity tyrosine-phosphorylation-regulated kinase 1B (DYRK1B, Homo sapiens, UniProt Q9Y463) | 100
Tyrosine-protein kinase ABL1, non-phosphorylated (ABL1, Homo sapiens, UniProt P00519, F317L) | 94
Receptor-type tyrosine-protein kinase FLT3 (FLT3, Homo sapiens, UniProt P36888, D835V/ITD) | 85
Epidermal growth factor receptor (EGFR, Homo sapiens, UniProt P00533, T790M) | 87
Cyclin-dependent kinase 13 (CDK13, Homo sapiens, UniProt Q14004) | 100
Ephrin type-A receptor 8 (EPHA8, Homo sapiens, UniProt P29322) | 100
LIM domain kinase 2 (LIMK2, Homo sapiens, UniProt P53671) | 100
Epidermal growth factor receptor (EGFR, Homo sapiens, UniProt P00533, del746-750) | 100
BMP-2-inducible protein kinase (BMP2K, Homo sapiens, UniProt Q9NSY1) | 100
Serine/threonine-protein kinase TAO3 (TAOK3, Homo sapiens, UniProt Q9H2K8) | 88
Epidermal growth factor receptor (EGFR, Homo sapiens, UniProt P00533, L858R) | 100
Mitogen-activated protein kinase kinase kinase 1 (MAP3K1, Homo sapiens, UniProt Q13233) | 100
Epidermal growth factor receptor (EGFR, Homo sapiens, UniProt P00533, del747-750/T751S) | 100
Ephrin type-A receptor 7 (EPHA7, Homo sapiens, UniProt Q15375) | 96
SRSF protein kinase 1 (SRPK1, Homo sapiens, UniProt Q96SB4) | 87

Set 3
Organism: Sarcocystis neurona
Read-out: parasite growth
Tested at: 10 µM
Time: 96 h
Notes: first screen
Structure (SMILES) | inhibition [%]
CN(C)CCOC(c1ccc(Cl)cc1)c1ccccn1 (centres unmarked) | 3.5
CC(=O)S[C@@H]1CC2=CC(=O)CC[C@]2(C)[C@H]2CC[C@@]3(C)[C@@H](CC[C@@]34CCC(=O)O4)[C@H]12 | 6.1
Nc1c2c(nc3c1CCC3)CCCC2 | 13.2
Nc1nc(Cl)nc2c1ncn2[C@H]1C[C@H](O)[C@@H](CO)O1 | -6.7
CC[C@H](C)C(=O)O[C@H]1CCC=C2C=C[C@H](C)[C@H](CC[C@@H]3C[C@@H](O)CC(=O)O3)[C@H]21 | 20.4
COCC1=C(C(=O)OC(C)OC(=O)OC(C)C)N2C(=O)[C@@H](NC(=O)/C(=N\OC)c3csc(N)n3)[C@H]2SC1 (some centres unmarked) | 9.7
Cc1ccc(C)c(OCCCC(C)(C)C(=O)O)c1 | 8.9
CNCC[C@@H](Oc1ccccc1C)c1ccccc1 | 8.1
Cc1cccc(Nc2ccccc2C(=O)O)c1C | -3.9

Set 4
Structure (SMILES): COc1cc(C(=O)N2CCC(N3CCN(C)CC3)CC2)ccc1Nc1ncc2c(n1)N(C)c1ccccc1C(=O)N2C
Read-out: probe labelling
target | test | system | setting | inhibition [%]
WNK1/WNK2 (mouse) | inhibitor, KiNativ ActivX ADP probe | mouse brain lysate | 1 µM, ATP loop peptide GSFkTVYK | 13.4
IRAK3 (human) | KiNativ ATP probe | human PBMC lysate | concentration not given, LYS1 labelled site | -17.4
mouse PCTAIRE2 and PCTAIRE3 | KiNativ ATP probe | mouse brain lysate | 0.1 µM, LYS1 site | -5.8
PAK2 (human) | KiNativ ADP probe | human PBMC lysate | concentration not given, LYS1 labelled site | 7.7
NEK9 (human) | KiNativ ATP probe | human PBMC lysate | concentration not given, LYS2 labelled site | -4
EGFR (mouse) | KiNativ, refers to: IPVAIkELR peptide, LYS1 site | brain tissue lysate (mouse) | 0.1 µM, together with: ADP acyl-phosphate probe | -11.3

Repeated from above (set 3):
Structure (SMILES) | inhibition [%]
Nc1nc(Cl)nc2c1ncn2[C@H]1C[C@H](O)[C@@H](CO)O1 | -6.7
CC[C@H](C)C(=O)O[C@H]1CCC=C2C=C[C@H](C)[C@H](CC[C@@H]3C[C@@H](O)CC(=O)O3)[C@H]21 | 20.4
COCC1=C(C(=O)OC(C)OC(=O)OC(C)C)N2C(=O)[C@@H](NC(=O)/C(=N\OC)c3csc(N)n3)[C@H]2SC1 (some centres unmarked) | 9.7
Cc1ccc(C)c(OCCCC(C)(C)C(=O)O)c1 | 8.9
CNCC[C@@H](Oc1ccccc1C)c1ccccc1 | 8.1
